{"data": "Results collected from several papers", "note": "A part holds a random share of what one study measured."}
{"data": "Series 1", "target": "Histone acetyltransferase KAT6A, winged helix 1, GST fusion (KAT6A, Homo sapiens, UniProt Q92794, residues 1-85)", "method": "protein binding microarray", "molecule type": "double-stranded DNA, one strand shown", "sample": "in vitro", "tested at": "not given", "notes": "8-mer, flanks averaged, mean of 2 arrays, mostly near background", "relative to": "not given", "direction": "higher = stronger binding", "Target sequence (chain)": "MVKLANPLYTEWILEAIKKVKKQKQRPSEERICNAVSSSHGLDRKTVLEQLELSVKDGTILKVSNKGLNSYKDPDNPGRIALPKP"}
{"Oligonucleotide": "GCTAAGTA", "E-score": -0.109}
{"Oligonucleotide": "TCAGCGAA", "E-score": 0.107}
{"Oligonucleotide": "CTTGACTA", "E-score": -0.148}
{"Oligonucleotide": "GCAGGCTA", "E-score": -0.028}
{"data": "Series 2", "target": "Interferon regulatory factor 5, full length, phosphomimetic (IRF5, Homo sapiens, UniProt Q13568-2, residues 1-514, S451D/S453D/S456D/S462D)", "method": "protein-binding microarray", "molecule type": "double-stranded DNA, one strand shown", "sample": "in vitro", "tested at": "940 nM top", "notes": "60-bp whole probe", "together with": "salmon DNA 0.4 mg/ml", "relative to": "random background probes", "direction": "higher = stronger binding"}
{"Oligonucleotide": "GCCTAGCACTTAGGACTGAGTATCGATTAGTGCTAGGTCTTGATTCGCTTGACGCTGCTG", "fitted relative affinity [z-score]": 3.85}
{"Oligonucleotide": "GCCTAGCACTGTCCTGTCTACATGGGTGTGTGCTAGGTCTTGATTCGCTTGACGCTGCTG", "fitted relative affinity [z-score]": 0.0264}
{"Oligonucleotide": "GCCTAGCACGACGATTTCAGTCTCGGGACGTGCTAGGTCTTGATTCGCTTGACGCTGCTG", "fitted relative affinity [z-score]": 1.51}
{"Oligonucleotide": "GCCTAGCACTTAGATTTCAGACCGGATTAGTGCTAGGTCTTGATTCGCTTGACGCTGCTG", "fitted relative affinity [z-score]": 0.351}
{"data": "Series 3", "target": "Sal-like protein 4, full length isoform A (SALL4, Homo sapiens, UniProt Q9UJQ4, residues 1-1053)", "method": "universal PBM", "molecule type": "double-stranded DNA, one strand shown", "sample": "in vitro", "tested at": "600 nM", "notes": "8-mer, flanks averaged, mean of replicates", "direction": "higher = stronger binding", "UniProt Q9UJQ4, sequence (whole entry, looked up)": "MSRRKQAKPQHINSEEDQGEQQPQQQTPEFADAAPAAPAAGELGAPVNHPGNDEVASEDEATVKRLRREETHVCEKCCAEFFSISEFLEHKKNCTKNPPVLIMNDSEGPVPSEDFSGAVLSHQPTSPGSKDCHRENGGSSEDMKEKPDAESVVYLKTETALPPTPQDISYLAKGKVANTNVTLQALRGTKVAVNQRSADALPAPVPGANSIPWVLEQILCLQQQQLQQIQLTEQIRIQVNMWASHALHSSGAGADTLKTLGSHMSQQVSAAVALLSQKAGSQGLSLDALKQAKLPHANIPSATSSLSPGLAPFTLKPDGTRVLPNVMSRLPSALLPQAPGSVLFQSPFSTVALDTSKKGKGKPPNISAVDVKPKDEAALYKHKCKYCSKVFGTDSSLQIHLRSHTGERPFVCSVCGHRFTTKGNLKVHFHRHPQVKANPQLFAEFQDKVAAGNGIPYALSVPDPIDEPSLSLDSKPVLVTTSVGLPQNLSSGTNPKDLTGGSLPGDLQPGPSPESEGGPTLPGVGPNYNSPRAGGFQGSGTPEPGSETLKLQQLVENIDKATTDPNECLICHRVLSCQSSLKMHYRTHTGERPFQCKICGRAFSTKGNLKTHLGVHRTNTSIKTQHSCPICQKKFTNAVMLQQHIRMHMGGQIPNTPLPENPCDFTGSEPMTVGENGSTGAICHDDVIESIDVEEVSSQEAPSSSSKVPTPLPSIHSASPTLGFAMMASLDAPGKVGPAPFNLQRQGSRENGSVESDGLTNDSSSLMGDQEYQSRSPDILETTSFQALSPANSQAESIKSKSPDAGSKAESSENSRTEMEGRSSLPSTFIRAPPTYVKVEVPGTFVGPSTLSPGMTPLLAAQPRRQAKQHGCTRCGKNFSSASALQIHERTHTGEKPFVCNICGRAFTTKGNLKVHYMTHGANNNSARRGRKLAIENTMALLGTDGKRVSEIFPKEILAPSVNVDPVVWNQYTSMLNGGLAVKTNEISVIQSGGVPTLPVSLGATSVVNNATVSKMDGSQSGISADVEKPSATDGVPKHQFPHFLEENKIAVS"}
{"Oligonucleotide": "CTGGCGAC", "E-score": -0.222}
{"Oligonucleotide": "CTCAGGGA", "E-score": -0.319}
{"Oligonucleotide": "CATACGAG", "E-score": 0.00585}
{"Oligonucleotide": "CCCCTGCG", "E-score": -0.253}
{"Oligonucleotide": "CTTGCAAG", "E-score": -0.0297}
{"Oligonucleotide": "CCACTCCA", "E-score": -0.128}
{"data": "Mixed results"}
{"Substance": "PhoQ, residues 284 288 289 292 302 303 DDMDFR", "target": "PhoP, residues 12 14 15 18 19 LHHVQ (Escherichia coli, UniProt P23836)", "test": "Sort-seq, refers to: YFP reporter", "system": "E. coli", "conditions": "PhoQ-PhoP variant library, together with: 10 µM Mg2+", "scale": "relative to: high Mg2+ state, higher = stronger signaling", "endpoint": "fold induction", "value": 0.82}
{"note": "Repeated from above (series 2):"}
{"Oligonucleotide": "GCCTAGCACTTAGGACTGAGTATCGATTAGTGCTAGGTCTTGATTCGCTTGACGCTGCTG", "fitted relative affinity [z-score]": 3.85}
{"Oligonucleotide": "GCCTAGCACTGTCCTGTCTACATGGGTGTGTGCTAGGTCTTGATTCGCTTGACGCTGCTG", "fitted relative affinity [z-score]": 0.0264}
